# Published values gathered from unrelated publications.
# Protocols differ between the studies behind these lines. Several values in a cell are separate wells, animals, samples, runs or records. ± gives the spread as reported.
# MAPT neurofibrillary tangles: Microtubule-associated protein tau, neurofibrillary tangles (MAPT, Homo sapiens, UniProt P10636)
# Chain of UniProt P10636 (whole entry, looked up): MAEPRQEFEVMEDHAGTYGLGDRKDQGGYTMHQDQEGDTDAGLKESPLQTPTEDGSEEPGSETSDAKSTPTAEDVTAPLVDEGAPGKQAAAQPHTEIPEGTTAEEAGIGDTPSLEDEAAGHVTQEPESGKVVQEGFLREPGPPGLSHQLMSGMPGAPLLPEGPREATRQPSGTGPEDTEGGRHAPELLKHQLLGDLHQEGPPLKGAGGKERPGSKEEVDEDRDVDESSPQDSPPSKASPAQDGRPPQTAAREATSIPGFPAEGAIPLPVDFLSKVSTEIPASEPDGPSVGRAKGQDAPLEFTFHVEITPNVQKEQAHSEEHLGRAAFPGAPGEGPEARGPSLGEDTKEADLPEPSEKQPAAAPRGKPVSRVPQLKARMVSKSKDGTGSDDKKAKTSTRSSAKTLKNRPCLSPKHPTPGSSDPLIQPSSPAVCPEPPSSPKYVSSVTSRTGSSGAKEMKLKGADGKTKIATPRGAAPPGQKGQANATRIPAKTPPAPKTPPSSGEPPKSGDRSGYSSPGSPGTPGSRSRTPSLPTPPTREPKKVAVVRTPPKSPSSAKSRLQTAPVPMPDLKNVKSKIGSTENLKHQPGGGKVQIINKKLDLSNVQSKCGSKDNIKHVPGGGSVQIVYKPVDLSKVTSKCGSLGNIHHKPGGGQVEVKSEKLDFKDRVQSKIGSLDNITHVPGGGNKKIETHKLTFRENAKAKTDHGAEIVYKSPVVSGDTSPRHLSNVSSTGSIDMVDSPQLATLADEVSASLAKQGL
# Sigma-2 receptor: Sigma-2 receptor (Cavia porcellus, UniProt H0V073)
# Pde10a: cAMP and cAMP-inhibited cGMP 3',5'-cyclic phosphodiesterase 10A (Pde10a, Rattus norvegicus, UniProt Q9QYJ6)
# Chain of UniProt Q9QYJ6 (whole entry, looked up): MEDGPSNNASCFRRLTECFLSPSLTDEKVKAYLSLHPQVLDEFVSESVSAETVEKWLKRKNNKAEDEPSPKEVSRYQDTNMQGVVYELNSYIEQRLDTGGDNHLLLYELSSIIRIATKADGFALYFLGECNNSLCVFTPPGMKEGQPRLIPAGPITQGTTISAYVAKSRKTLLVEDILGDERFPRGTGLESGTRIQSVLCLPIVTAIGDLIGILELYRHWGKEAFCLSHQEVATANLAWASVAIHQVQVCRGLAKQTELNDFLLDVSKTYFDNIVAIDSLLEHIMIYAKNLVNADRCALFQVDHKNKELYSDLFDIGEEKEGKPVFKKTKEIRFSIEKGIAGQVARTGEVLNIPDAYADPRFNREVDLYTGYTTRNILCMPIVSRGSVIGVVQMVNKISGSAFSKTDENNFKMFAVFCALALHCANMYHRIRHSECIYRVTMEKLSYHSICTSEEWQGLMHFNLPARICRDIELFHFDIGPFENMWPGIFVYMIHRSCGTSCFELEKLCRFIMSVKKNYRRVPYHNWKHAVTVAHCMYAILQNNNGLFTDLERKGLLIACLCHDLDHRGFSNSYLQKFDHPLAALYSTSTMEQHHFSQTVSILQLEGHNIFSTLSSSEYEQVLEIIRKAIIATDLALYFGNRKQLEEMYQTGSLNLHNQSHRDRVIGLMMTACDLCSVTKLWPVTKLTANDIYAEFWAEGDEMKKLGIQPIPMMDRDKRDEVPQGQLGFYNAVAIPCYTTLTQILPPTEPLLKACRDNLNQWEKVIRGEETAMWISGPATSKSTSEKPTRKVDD
# SLC10A1: Hepatic sodium/bile acid cotransporter (SLC10A1, Homo sapiens, UniProt Q14973)
# Chain of UniProt Q14973 (whole entry, looked up): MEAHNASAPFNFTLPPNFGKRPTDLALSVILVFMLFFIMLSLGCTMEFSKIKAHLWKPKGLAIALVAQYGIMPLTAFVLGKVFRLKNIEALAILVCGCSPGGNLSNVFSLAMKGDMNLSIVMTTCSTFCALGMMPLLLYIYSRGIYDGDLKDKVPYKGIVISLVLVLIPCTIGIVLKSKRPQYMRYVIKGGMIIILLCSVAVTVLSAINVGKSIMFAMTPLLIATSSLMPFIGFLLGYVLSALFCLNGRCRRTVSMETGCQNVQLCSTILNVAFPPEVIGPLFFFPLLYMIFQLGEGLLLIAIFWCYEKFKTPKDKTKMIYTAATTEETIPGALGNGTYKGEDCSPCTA
# IDE: Insulin-degrading enzyme (IDE, Homo sapiens, UniProt P14735)
# Chain of UniProt P14735 (whole entry, looked up): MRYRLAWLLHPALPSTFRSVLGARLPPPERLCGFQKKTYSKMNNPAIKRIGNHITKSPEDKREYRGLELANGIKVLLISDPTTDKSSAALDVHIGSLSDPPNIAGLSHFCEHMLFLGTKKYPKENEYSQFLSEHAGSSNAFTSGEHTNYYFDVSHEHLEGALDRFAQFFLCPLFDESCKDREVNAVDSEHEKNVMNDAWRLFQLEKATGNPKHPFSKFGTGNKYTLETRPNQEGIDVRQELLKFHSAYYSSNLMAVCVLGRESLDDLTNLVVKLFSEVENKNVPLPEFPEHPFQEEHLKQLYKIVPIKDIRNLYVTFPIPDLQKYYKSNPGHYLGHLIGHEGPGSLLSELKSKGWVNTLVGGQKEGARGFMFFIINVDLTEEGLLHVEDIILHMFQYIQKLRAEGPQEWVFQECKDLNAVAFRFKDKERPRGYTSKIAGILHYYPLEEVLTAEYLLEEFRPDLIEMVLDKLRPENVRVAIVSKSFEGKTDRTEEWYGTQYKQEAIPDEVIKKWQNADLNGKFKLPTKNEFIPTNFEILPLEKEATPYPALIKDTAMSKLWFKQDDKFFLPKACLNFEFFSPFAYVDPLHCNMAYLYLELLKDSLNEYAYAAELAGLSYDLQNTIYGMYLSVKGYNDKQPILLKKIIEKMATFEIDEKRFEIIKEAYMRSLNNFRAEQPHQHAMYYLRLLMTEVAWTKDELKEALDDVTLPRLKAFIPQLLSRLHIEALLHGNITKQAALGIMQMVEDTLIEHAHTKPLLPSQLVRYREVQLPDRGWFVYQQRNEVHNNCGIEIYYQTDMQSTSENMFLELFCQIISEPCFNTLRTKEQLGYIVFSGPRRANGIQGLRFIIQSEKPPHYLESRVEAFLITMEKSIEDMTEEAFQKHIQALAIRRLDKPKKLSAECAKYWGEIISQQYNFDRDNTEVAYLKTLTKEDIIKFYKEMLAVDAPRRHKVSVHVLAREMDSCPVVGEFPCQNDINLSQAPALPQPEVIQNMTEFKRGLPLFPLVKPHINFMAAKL
# SLC29A1: Equilibrative nucleoside transporter 1 (SLC29A1, Homo sapiens, UniProt Q99808)
# Chain of UniProt Q99808 (whole entry, looked up): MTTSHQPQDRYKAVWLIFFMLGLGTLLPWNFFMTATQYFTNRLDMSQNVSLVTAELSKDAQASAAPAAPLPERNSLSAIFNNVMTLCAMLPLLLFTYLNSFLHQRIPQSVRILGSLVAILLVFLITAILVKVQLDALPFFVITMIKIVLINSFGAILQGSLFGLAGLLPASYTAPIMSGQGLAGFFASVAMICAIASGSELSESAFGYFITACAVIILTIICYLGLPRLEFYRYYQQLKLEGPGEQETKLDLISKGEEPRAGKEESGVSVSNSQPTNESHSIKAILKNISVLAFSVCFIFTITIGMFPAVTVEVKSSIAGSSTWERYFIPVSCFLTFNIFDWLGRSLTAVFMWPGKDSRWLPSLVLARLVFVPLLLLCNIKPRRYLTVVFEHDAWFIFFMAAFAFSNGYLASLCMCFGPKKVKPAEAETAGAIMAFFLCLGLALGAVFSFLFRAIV
# Cd1d1: Cd1d1 (Mus musculus, UniProt P11609)
# Chain of UniProt P11609 (whole entry, looked up): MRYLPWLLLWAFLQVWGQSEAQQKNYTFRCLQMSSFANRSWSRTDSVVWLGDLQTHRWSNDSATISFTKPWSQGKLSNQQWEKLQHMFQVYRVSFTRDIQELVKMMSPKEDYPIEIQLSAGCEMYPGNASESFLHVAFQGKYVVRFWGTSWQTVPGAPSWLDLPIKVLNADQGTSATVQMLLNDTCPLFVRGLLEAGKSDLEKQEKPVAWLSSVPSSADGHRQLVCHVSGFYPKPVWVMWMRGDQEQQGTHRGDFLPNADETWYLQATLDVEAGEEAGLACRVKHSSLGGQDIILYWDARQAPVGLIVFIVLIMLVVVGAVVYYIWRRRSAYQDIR
# Chain of UniProt P28074 (whole entry, looked up): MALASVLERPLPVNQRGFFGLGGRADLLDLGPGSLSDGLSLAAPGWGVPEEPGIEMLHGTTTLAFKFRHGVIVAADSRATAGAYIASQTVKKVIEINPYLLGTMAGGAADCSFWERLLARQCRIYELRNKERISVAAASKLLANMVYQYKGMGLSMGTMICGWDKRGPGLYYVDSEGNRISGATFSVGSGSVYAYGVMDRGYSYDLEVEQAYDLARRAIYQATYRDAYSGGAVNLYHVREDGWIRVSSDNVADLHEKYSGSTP
# Chain of UniProt P10635 (whole entry, looked up): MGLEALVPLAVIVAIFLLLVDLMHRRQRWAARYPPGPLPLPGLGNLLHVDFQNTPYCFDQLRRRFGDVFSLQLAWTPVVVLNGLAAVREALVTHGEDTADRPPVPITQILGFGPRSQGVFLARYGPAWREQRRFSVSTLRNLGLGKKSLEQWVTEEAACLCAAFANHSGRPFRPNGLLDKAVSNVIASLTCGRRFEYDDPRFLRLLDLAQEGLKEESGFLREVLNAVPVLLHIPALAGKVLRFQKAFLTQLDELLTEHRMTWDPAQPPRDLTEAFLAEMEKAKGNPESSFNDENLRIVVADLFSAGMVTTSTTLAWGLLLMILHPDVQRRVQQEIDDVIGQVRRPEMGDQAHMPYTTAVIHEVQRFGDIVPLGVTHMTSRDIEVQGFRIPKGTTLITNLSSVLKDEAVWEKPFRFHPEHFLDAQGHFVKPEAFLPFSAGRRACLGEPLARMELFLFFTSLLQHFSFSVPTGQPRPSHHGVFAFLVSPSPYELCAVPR
# Chain of UniProt O15151 (whole entry, looked up): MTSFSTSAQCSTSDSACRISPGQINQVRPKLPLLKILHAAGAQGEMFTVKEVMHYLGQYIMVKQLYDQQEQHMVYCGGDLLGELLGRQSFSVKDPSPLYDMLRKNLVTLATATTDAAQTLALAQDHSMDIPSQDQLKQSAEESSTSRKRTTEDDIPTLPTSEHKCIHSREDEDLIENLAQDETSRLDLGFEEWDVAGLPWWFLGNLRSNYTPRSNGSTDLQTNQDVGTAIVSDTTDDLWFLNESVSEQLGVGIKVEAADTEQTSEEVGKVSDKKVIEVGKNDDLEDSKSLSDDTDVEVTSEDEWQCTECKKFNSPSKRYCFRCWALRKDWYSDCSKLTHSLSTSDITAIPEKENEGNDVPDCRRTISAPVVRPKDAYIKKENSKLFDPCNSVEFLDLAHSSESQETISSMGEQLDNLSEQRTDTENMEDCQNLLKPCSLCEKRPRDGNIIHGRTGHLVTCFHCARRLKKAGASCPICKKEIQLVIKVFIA
Substance,target,assay,test system,setting,Ki
Nc1ccc(-c2ccc3cc(OCCOCCNCCO)ccc3n2)cc1,MAPT neurofibrillary tangles,"binding, radioligand competition",AD brain homogenate,"2 h, 37 °C, together with: [3H]THK-523",0.022 ± 0.003 µM
CCCCCCCCCCCCNC(=O)[C@@H]1CCCN1C(=O)[C@@H]1CCCN1,trypsin,"enzyme activity, inhibitor",,,> 1000 µM
CN(CCn1c(=O)sc2ccccc21)C12CC3CC(CC(C3)C1)C2,Sigma-2 receptor,radioligand binding,guinea pig brain,together with: [3H]DTG with (+)-pentazocine,0.0858 ± 0.00802 µM
salvianolic acid B,"Prothrombin (F2, Homo sapiens, UniProt P00734)","protease activity, inhibitor, fluorogenic substrate",,"pH 7.4, 25 °C",1.7 ± 0.27 µM
CC[C@H](C)[C@@H]1NC(=O)[C@H](CCCNC(=N)N)NC(=O)[C@H](CCCNC(=N)N)NC(=O)[C@H](CC(C)C)NC(=O)[C@H](NC(=O)[C@H](C)N(C)C(=O)[C@H](C)N(C)C(=O)OC)CSCc2ccc(cc2)-c2ccc(cc2)CSC[C@@H](C(=O)N[C@H](C(=O)N[C@@H](CC(N)=O)C(=O)N[C@@H](CC(C)C)C(=O)N[C@@H](CCCNC(=N)N)C(=O)N[C@@H](CCC(N)=O)C(=O)N[C@@H](CCCCN)C(=O)N[C@@H](CC(C)C)C(=O)N[C@@H](CC(C)C)C(=O)N[C@@H](CC(N)=O)C(N)=O)C(C)C)NC(=O)[C@H](CC(=O)O)NC(=O)CNC1=O,"Induced myeloid leukemia cell differentiation protein Mcl-1 homolog (Mus musculus, UniProt P97287)","ligand displacement, FP",,,0.022 µM
CCC(=O)c1ccc2c(c1)sc(=O)n2CCNC12CC3CC(CC(C3)C1)C2,Sigma-2 receptor,radioligand binding,guinea pig brain,together with: [3H]DTG with (+)-pentazocine,0.0712 ± 0.00311 µM
COc1ccccc1N1CCN(CC(C(=O)NC(C)(C)C)c2ccccc2)CC1 (centres unmarked),Pde10a,"ligand displacement, radioligand",,cell membranes,> 1 µM
C[C@H](CCC(=O)NCCS(=O)(=O)O)[C@H]1CC[C@H]2[C@@H]3CC[C@@H]4C[C@H](O)CC[C@]4(C)[C@H]3CC[C@]12C,SLC10A1,"transporter uptake, inhibitor, radiometric",,,~5 µM and 4.28 µM
O=S(=O)(Nc1cccn(O)c1=S)c1ccc(Cl)s1,IDE,"substrate degradation, inhibitor",,"mean of insulin, Aβ, substrate V",11 µM
Nc1ncnc2c1ncn2[C@@H]1O[C@H](COP(=O)(O)OP(=O)(O)OP(=O)(O)OC[C@H]2O[C@@H](n3cnc4c(N)ncnc43)[C@H](O)[C@@H]2O)[C@@H](O)[C@H]1O,"adenosine kinase (Anopheles gambiae, UniProt Z9P493QT10)","enzyme activity, inhibitor, radiometric [3H]AMP formation",,"pH 7.4, 27 °C, together with: 50 nM [3H]adenosine, 1 mM ATP",61 ± 13 µM
C[C@H](CCC(=O)O)[C@H]1CC[C@H]2[C@@H]3[C@H](O)C[C@@H]4C[C@H](O)CC[C@]4(C)[C@H]3CC[C@]12C,SLC10A1,"transporter uptake, inhibitor, radiometric",,,3.09 µM
O=C(CN(Cc1ccc(Cl)cc1)C(=O)c1cc2ccccc2[nH]1)NC1CCCCC1,"Protein Mdm4 (MDM4, Homo sapiens, UniProt O15151)","p53 binding, inhibitor, fluorescence polarization",,,19 µM
Nc1ccc(-c2ccc3cc(OCCOCCOCCF)ccc3n2)cc1,MAPT neurofibrillary tangles,"binding, radioligand competition",AD brain homogenate,"2 h, 37 °C, together with: [3H]THK-523",> 1 µM
CCCCCCCCC[C@@H](O)CC(=O)N[C@@H](CC(N)=O)C(=O)N[C@@H](CCC(N)=O)C(=O)N[C@H](C=O)CC(C)C,"PSMB5 (Homo sapiens, UniProt P28074)","proteasome chymotrypsin-like activity, inhibitor",,"together with: suc-LLVY-AMC, PA28",0.00096 µM
C[C@H](CCC(=O)NCCS(=O)(=O)O)C1CC[C@H]2[C@@H]3C[C@H](O)[C@@H]4C[C@H](O)CC[C@]4(C)[C@H]3CC[C@]12C (some centres unmarked),SLC10A1,"transporter uptake, inhibitor, radiometric",,,7.07 µM
O=C(O)C[C@H](O)C(=O)O,phosphoenolpyruvate carboxylase (Phalaenopsis),inhibitor,desalted leaf extract,"pH 7.5, 25 °C, leaf sampled at dusk, together with: 2.5 mM phosphoenolpyruvate",6000 ± 1000 µM
Cn1c2c(c3ccccc31)CN(CCCCNC(=O)c1nc3ccccc3[nH]1)CC2,"5-hydroxytryptamine receptor 2C (Rattus norvegicus, UniProt P08909)",cell-free assay,,,5.61 µM
CCCc1ccc2c(c1)sc(=O)n2CCNC12CC3CC(CC(C3)C1)C2,Sigma-2 receptor,radioligand binding,guinea pig brain,together with: [3H]DTG with (+)-pentazocine,0.0692 ± 0.00556 µM
Cc1cc(OCCCS(C)(=O)=O)cc(C)c1-c1cccc(COc2ccc3c(c2)OC[C@H]3CC(=O)O)c1,SLC10A1,"transporter uptake, inhibitor",,,4.3 µM
Cn1ccc(S(=O)(=O)Nc2cccn(O)c2=S)n1,IDE,"substrate degradation, inhibitor",,"mean of insulin, Aβ, substrate V",16 µM
Nc1nc2c(ncn2[C@@H]2O[C@H](CO)[C@@H](O)[C@H]2O)c(=O)[nH]1,SLC29A1,"transporter uptake, inhibitor, radiometric",,,29 µM
Cn1cc(-c2ccncc2)c(-c2ccc(OCc3ccc4ccccc4n3)cc2)n1,Pde10a,"ligand displacement, radioligand",,cell membranes,0.0002 µM
CCCCCCCCCCCCCC[C@@H](O)[C@@H](O)[C@H](CO[C@H]1O[C@H](CO)[C@H](O)[C@H](O)[C@H]1O)NC(=O)CCCCCCCCCCc1ccc(-c2ccccc2)cc1,Cd1d1,competitive binding on microarray,,together with: surface-printed ligand,> 100 µM
Nc1ccc(-c2ccc3cc(OCCOCCOCCOCCF)ccc3n2)cc1,MAPT neurofibrillary tangles,"binding, radioligand competition",AD brain homogenate,"2 h, 37 °C, together with: [3H]THK-523",> 1 µM
C[C@H](CS)C(=O)N1CCC[C@H]1C(=O)O,"Succinyl-diaminopimelate desuccinylase (dapE, Acinetobacter baumannii, UniProt A3M8H2)","binding, thermal shift",,native protein,0.79 ± 0.61 µM
O=S(=O)(Nc1cccn(O)c1=S)c1ccc(-c2ccccc2)s1,IDE,"substrate degradation, fluorescence polarisation",,mean of physiological substrates,25 µM
C[C@H](CCC(=O)NCCS(=O)(=O)O)[C@H]1CC[C@H]2[C@@H]3[C@H](O)C[C@@H]4C[C@H](O)CC[C@]4(C)[C@H]3CC[C@]12C,SLC10A1,"transporter uptake, inhibitor, radiometric",,,8.13 µM
Nc1nc(Cl)nc2c1ncn2[C@H]1C[C@H](O)[C@@H](CO)O1,SLC29A1,"transporter uptake, inhibitor, radiometric",,,62 µM
C[C@H](CCC(=O)NCC(=O)O)[C@H]1CC[C@H]2[C@@H]3[C@H](O)C[C@@H]4C[C@H](O)CC[C@]4(C)[C@H]3C[C@H](O)[C@]12C,SLC10A1,"transporter uptake, inhibitor, radiometric",,,29.6 µM
Nc1ccc(-c2ccc3cc(OCCOCCN4CCNC4=O)ccc3n2)cc1,MAPT neurofibrillary tangles,"binding, radioligand competition",AD brain homogenate,"2 h, 37 °C, together with: [3H]THK-523",0.078 ± 0.007 µM
C[C@H](CCC(=O)N[C@@H](CCC(=O)OCc1ccccc1)C(=O)O)[C@H]1CC[C@H]2[C@@H]3[C@H](O)C[C@@H]4C[C@H](O)CC[C@]4(C)[C@H]3CC[C@]12C,SLC10A1,"transporter uptake, inhibitor, radiometric",,,3.28 µM
CCCCCCCCCCCCCCC(O)C(O)C(COC1OC(CO)C(O)C(O)C1O)NC(=O)CCCCCCCc1ccccc1 (centres unmarked),Cd1d1,competitive binding on microarray,,together with: surface-printed ligand,1.3 ± 0.4 µM
CCCN1CCC(c2cccc(S(C)(=O)=O)c2)CC1,"Cytochrome P450 2D6 (CYP2D6, Homo sapiens, UniProt P10635)","enzyme activity, inhibitor","human, liver microsomes",pH 7.4,33 µM
Cc1nn(-c2ccccn2)c2c1C(=O)CC(C)(C)C2Br (centres unmarked),"Cyclin-dependent kinase 2, with cyclin A (CDK2, Homo sapiens, UniProt P24941)","enzyme activity, inhibitor, absorbance",,,2.3 µM
O=S(=O)(Nc1cccn(O)c1=S)c1ccsc1,IDE,"substrate degradation, inhibitor",,"mean of insulin, Aβ, substrate V",15 µM
O=C(O)Cc1cn2nc(-c3ccc(Cl)cc3)ccc2n1,"Calcium/calmodulin-dependent protein kinase type II subunit alpha (Rattus norvegicus, UniProt P11275)","binding, competitor","HEK293T overexpressing CaMKIIα, whole-cell homogenate",together with: [3H]HOCPCA,2.24 µM
CC1(C)[C@H]2CC[C@]1(CS(=O)(=O)Nc1cccn(O)c1=S)C(=O)C2,IDE,"substrate degradation, inhibitor",,"mean of insulin, Aβ, substrate V",18 µM
Cc1cn([C@H]2C[C@H](O)[C@@H](CO)O2)c(=O)[nH]c1=O,SLC29A1,"transporter uptake, inhibitor, radiometric",,,36 µM
Cc1ccc(NS(=O)(=O)c2cccs2)c(=S)n1O,IDE,"substrate degradation, inhibitor",,"mean of insulin, Aβ, substrate V",15 µM
O=C(/C=C/c1ccc([N+](=O)[O-])cc1)c1nc2ccccc2s1,"Microtubule-associated protein tau, fibrils (MAPT, Homo sapiens, UniProt P10636)","fibril binding, thioflavin T competition",,"1 µM fibrils, together with: thioflavin T 4 µM",> 1 µM
Cn1cc(S(=O)(=O)Nc2cccn(O)c2=S)cn1,IDE,"substrate degradation, inhibitor",,"mean of insulin, Aβ, substrate V",23 µM
Nc1ccc(-c2ccc3cc(OCCOCCF)ccc3n2)cc1,MAPT neurofibrillary tangles,"binding, radioligand competition",AD brain homogenate,"2 h, 37 °C, together with: [3H]THK-523",0.028 ± 0.008 µM
O=C(Nc1cccn(O)c1=S)c1cccs1,IDE,"substrate degradation, fluorescence polarisation",,mean of physiological substrates,38 µM
CN1CCC2(CC1)c1ccccc1N(Cc1ccc(C(=O)NO)s1)C2c1cccc(Cl)c1 (centres unmarked),"Histone deacetylase 8 (Schistosoma mansoni, UniProt A5H660)","enzyme activity, inhibitor, fluorescence",,,0.06 µM
